Assay results of several laboratories.
Several values in a cell are separate wells, animals, samples, runs or records.
Target: Tyrosine-protein kinase TXK (TXK, Homo sapiens, UniProt P42681)
Residues used in one study (P42681 1-527): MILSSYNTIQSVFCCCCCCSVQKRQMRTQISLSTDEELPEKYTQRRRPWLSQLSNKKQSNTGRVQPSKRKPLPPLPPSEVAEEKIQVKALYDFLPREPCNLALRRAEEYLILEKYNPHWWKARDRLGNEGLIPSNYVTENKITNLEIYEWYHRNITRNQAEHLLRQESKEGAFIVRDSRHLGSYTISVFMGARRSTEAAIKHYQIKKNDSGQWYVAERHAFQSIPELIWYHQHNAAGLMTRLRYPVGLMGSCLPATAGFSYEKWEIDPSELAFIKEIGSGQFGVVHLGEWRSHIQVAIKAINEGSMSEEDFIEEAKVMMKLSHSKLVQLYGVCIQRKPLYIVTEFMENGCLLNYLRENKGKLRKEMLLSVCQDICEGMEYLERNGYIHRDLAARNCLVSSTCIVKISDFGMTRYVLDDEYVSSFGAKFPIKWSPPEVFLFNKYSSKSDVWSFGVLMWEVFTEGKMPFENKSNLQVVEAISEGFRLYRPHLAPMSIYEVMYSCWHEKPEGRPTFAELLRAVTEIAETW

test | system | setting | how to read | quantity | result | Structure (SMILES)
kinase activity, inhibitor | – | 1 µM | reference: untreated control | remaining activity | 86% | COc1c(OCCCN2CCOCC2)ccc2c1N=C(NC(=O)c1cnc(N)nc1)N1CCN=C21
enzyme activity, inhibitor | – | 1 µM | – | activity vs control | 96% | CNC(=O)C[C@H](Cc1ccc(C#N)cc1)NC(=O)c1cc(-c2ccc(CN[C@H](C)c3ccc(C)cc3)o2)ccc1Cl
binding, competition with immobilised ligand | – | 1 µM | – | remaining binding | 9.5% | CNC(=O)C1CCN(c2cc(C)c(F)cc2NC(=O)c2ccc(-c3cc(O)ccc3C)c(C)c2)CC1
enzyme activity, inhibitor | – | 10 µM | – | inhibition | 79% | NC(=O)[C@@H](O)C[C@H]1CCc2sc3ncnc(O[C@H]4CC[C@H](N5CCOCC5)CC4)c3c21
binding, competition with immobilised ligand | – | 1 µM | – | remaining binding | 100% | Nc1ncc2c(n1)-c1c([nH]c3ccc(C4=CCOCC4)cc13)CCC2
binding, competition with immobilised ligand | – | 0.1 µM | – | remaining binding | 53% | Cc1cnc2nc1Nc1cccc(c1)COC/C=C/COCc1cc(ccc1OCCN1CCOCC1)N2
binding, competition with immobilised ligand | – | 1 µM | – | remaining binding | 91% | COc1cc(Nc2nc(C)cc(-c3cnn4nc(OC)ccc34)n2)cc(C(F)(F)F)c1
enzyme activity, inhibitor | – | 10 µM | – | activity vs control | 112% | O=C(Cc1ccc(OCc2ccccc2)cc1)NC1(C(=O)O)CCN(C(=O)c2ccc(-c3cccc(Cl)c3)cc2)CC1
KinomeScan | – | 0.1 µM | reference: untreated | remaining binding | 100% | CNC1C[S+]2CC[S+]3CC[S+](C1)[Ru-4]321([N]=C=S)[n]2c3ccc(OC)cc3c3c4c(c5cc(F)c[n+]1c5c32)C(=O)NC4=O (stereo not drawn)
enzyme activity, inhibitor | – | 10 µM | – | inhibition | -4% | Cc1cccc(O[C@H]2CCC[C@@H](C(C)CNCc3ccncc3)C2)c1 (relative stereo)
KINOMEscan | – | 1 µM | reference: DMSO control | remaining binding | 59% | C=CC(=O)N1CCc2ccc(-n3c(=O)ccc4cnc5ccc(-c6cnn(C)c6)cc5c43)cc21
kinase activity | – | 0.1 µM | – | inhibition | 55% and 57% | C=CC(=O)Nc1cccc(-c2cnc3[nH]cc(C(=O)NC(C)(C)C)c3n2)c1
enzyme activity, inhibitor | – | 0.1 µM | – | inhibition | 3% | CN1CCN(Cc2ccc(-c3ccc(CO[C@H]4CCC[C@@H]4NC(=O)c4cc(-c5cnn(C)c5)cnc4N)cc3)cc2)CC1
target engagement, NanoBRET | human cells | – | – | Hill slope | 1.22 | Cc1ccc(C(=O)Nc2ccc(CN3CCN(C)CC3)c(C(F)(F)F)c2)cc1C#Cc1cnc2cccnn12
binding, competition with immobilised ligand | – | 1 µM | – | remaining binding | 0.65% | CCN1CCN(Cc2ccc(NC(=O)c3ccc(C)c(NC(=O)c4cncc(-c5cccs5)c4)c3)cc2C(F)(F)F)CC1

For quick reference, copied from above:
test | system | setting | how to read | quantity | result | Structure (SMILES)
kinase activity, inhibitor | – | 1 µM | reference: untreated control | remaining activity | 86% | COc1c(OCCCN2CCOCC2)ccc2c1N=C(NC(=O)c1cnc(N)nc1)N1CCN=C21
enzyme activity, inhibitor | – | 1 µM | – | activity vs control | 96% | CNC(=O)C[C@H](Cc1ccc(C#N)cc1)NC(=O)c1cc(-c2ccc(CN[C@H](C)c3ccc(C)cc3)o2)ccc1Cl
